Experimental data from different studies.
Protocols differ between the studies behind these lines. Numbers after ± are the reported error.

For O=[N+]([O-])c1ccc(NC2=N[N+](=Cc3cccs3)[Pd-]([Cl])([Cl])[S]2)cc1, the IC50 was 51.7 µM (HEL human lung fibroblasts; cell proliferation).
For C=CC(=O)Nc1cc(Nc2nccc(-c3c(-c4ccc(C(F)(F)F)cc4)n(C)c4ccccc34)n2)c(OC)cc1N(C)CCN(C)C, the IC50 was 0.0969 µM (NCI-H1975; cell growth or viability, MTT; 72 h).
With O=C(CN1C(=O)S/C(=C\c2ccccc2)C1=O)Nc1ccc(C(=O)Nc2ccc(F)cc2)cc1 the IC50 was 9.17 to 47.2 µM (HT-29, A549, HCT-116; cell growth, MTT; range over cell lines).
For Cc1ccc(C(C)C)cc1.Oc1ccccc1C=NNC1=Nc2ccccc2-c2[nH]c3ccc(Br)cc3c2C1.[Cl-].[Cl][Os+], the IC50 was 1.6 ± 0.3 µM (NCI-N87; cytotoxicity, MTT; 96 h).
O=C1CC[C@H](N2Cc3cc(-c4ccn5ncc(Br)c5n4)ccc3C2=O)C(=O)N1 has an IC50 of 0.013 µM (MOLM-13; cell growth, CellTiter luminescence; 72 h).
For [Ru+2].c1ccc(-c2cccc(-c3ccccn3)n2)nc1.c1ccc2nc(-c3nc4ccccc4s3)ccc2c1.c1cnccn1, the IC50 was 27.6 ± 3.4 µM (HL-60; cell viability; together with: light 22 J/cm^2).
With COc1c(O)c(-c2c(O)c(OC)c(OC)c3c2ccc2cc(O)ccc23)c2c(c1OC)-c1ccc(O)cc1CC2 the IC50 was 17.1 µM (U-87 MG; cell growth or viability, CCK-8; 24 h).
With CC(C)=CCC1=C([O-])C(=O)c2ccccc2C1=O.O=[N+]([O-])[O-].[Cu+2].c1ccc(-c2cccc(-c3ccccn3)n2)nc1 the IC50 was 19.5 ± 2.6 µM (A2780R cisplatin-resistant; cell viability, MTT; 24 h).
For CC(C)C1OC(=O)C(NC(=O)c2cccc(O)c2)C(C)OC(=O)C(C(C)C)OC(=O)C(C)(C)C(=O)C(Cc2ccccc2)OC1=O (stereo not drawn), the IC50 was over 20 µM (HCT-8; cell growth or viability, CCK-8; 72 h).
C=CC(=O)Nc1ccc(-c2c(-c3ccc(Oc4cccc(C)n4)cc3)c3c(N)ncnc3n2C)cc1 gave an IC50 of 0.014 µM (JMSU-1; cell growth or viability, ATP luminescence; 96 h).
COc1ccc(/N=N/C(=S)N2CCN(C)CC2)cc1 has an IC50 of over 50 µM (HT-1080; cell growth or viability, resazurin; 48 h).
The IC50 of C=C(C)[C@H]1CC[C@@]2(C)CC[C@]3(C)C[C@H]4[C@@H](C)C[C@@]5(O)OC(=O)/C(=C/C[C@H]3[C@H]12)[C@@H]45 is reported as 14 µM (CT26; cell growth or viability, MTT; 72 h).
COc1ccc([C@@H]2CC(=O)c3c(O)cc(O[C@@H]4O[C@H](CO[C@@H]5O[C@@H](C)[C@H](O)[C@@H](O)[C@H]5O)[C@@H](O)[C@H](O)[C@H]4O)cc3O2)cc1O has an IC50 of over 150 µg/mL (MRC5; cell growth or viability, trypan blue; 72 h).
The IC50 of CC[C@H](C)[C@H](NC(=O)[C@@H]1CCCN1C(=O)[C@@H](NC(=O)[C@@H]1CCCN1C(=O)[C@H](CCCCN)NC(=O)[C@H](CCCCN)NC(=O)[C@H](CCCCN)NC(=O)[C@@H]1CCCN1C(=O)[C@@H](N)CCSC)[C@@H](C)O)C(=O)N[C@@H](CCC(N)=O)C(=O)N[C@@H](CC(C)C)C(=O)N[C@@H](CC(N)=O)C(=O)N1CCC[C@H]1C(=O)N[C@@H](CCCCNC(=O)CNC(=O)[C@H](CCCCN)NC(=O)[C@H](CCCNC(=N)N)NC(=O)[C@H](Cc1ccccc1)NC(=O)[C@H](CCCNC(=N)N)NC(=O)[C@H](CCCNC(=N)N)NC(=O)[C@H](CCCNC(=N)N)NC(=O)[C@H](CO)NC(=O)[C@H](Cc1ccc(O)cc1)NC(=O)[C@H](CO)NC(=O)[C@H](CC(C)C)NC(=O)[C@H](CCCNC(=N)N)NC(=O)[C@@H](N)CCCNC(=N)N)C(N)=O is reported as 18.2 µM (HPASMC; PDGF-induced ERK phosphorylation, inhibitor, Western blot, refers to: phospho-ERK1/2; 30 min preincubation, serum-free medium, together with: PDGF 1 ng/mL, 10 min).
C=C(C)[C@@H](O)[C@H](O)C[C@H](C)[C@@H]1CC[C@]23C[C@]12CC[C@@H]1[C@@]2(C)CC[C@@H](O)C(C)(C)[C@@H]2C[C@@H](OC(C)=O)[C@]13C has an IC50 of over 10 µM (SCM-1; cytotoxicity, MTT).
O=C(OCc1cccc(O)c1O)c1ccc(O)c(CO)c1 has an IC50 of 1.52 µM (mouse PBMC; oxidative burst, lucigenin chemiluminescence; together with: fMLP 10 µM).
The IC50 of CCN1CCC2(CC1)C/C(=N\NC(=O)Nc1ccc(Cl)cc1)c1ccccc1O2 is reported as 21.7 to 47.7 µM (MCF7, HCT-116, PC-3, A549; cell growth, MTT; range over cell lines).
CC(C)c1cccc(C(C)C)c1-n1c(Cl)c(Cl)n(-c2c(C(C)C)cccc2C(C)C)c1=[Se].[Cl][Ag] gave an IC50 of 1.7 ± 0.1 µM (H157 lung carcinoma cells; cell viability, MTT; 72 h).

A few entries again:
With COc1c(O)c(-c2c(O)c(OC)c(OC)c3c2ccc2cc(O)ccc23)c2c(c1OC)-c1ccc(O)cc1CC2 the IC50 was 17.1 µM (U-87 MG; cell growth or viability, CCK-8; 24 h).
With CC(C)=CCC1=C([O-])C(=O)c2ccccc2C1=O.O=[N+]([O-])[O-].[Cu+2].c1ccc(-c2cccc(-c3ccccn3)n2)nc1 the IC50 was 19.5 ± 2.6 µM (A2780R cisplatin-resistant; cell viability, MTT; 24 h).
